Measured values pooled from the literature.
Compare with care: the assays were run in different laboratories. ± gives the spread as reported.
POLB I260M: DNA polymerase beta (POLB, Homo sapiens, UniProt P06746, I260M)

Compound | target | assay | test system | conditions | how to read | quantity | result
COc1ccc(-c2cc(C(F)(F)F)nc(NCc3ccc(Cl)cc3)n2)cc1OC | Secretin receptor (SCTR, Homo sapiens, UniProt P47872) | cAMP accumulation, positive allosteric modulator | CHO-K1 overexpressing SCTR | added: EC10-EC20 secretin peptide mix | reference: EC95 peptide mix | Emax | 67 ± 8.6%
Nc1nc2c(ncn2[C@H]2C[C@H](O)[C@@H](COP(=O)(O)OP(=O)(O)C(Br)(Br)P(=O)(O)O)O2)c(=O)[nH]1 | POLB I260M | nucleotide incorporation, substrate, single turnover kinetics |  | dG misincorporation opposite A |  | kpol/Kd | 5.1 ± 2.6 M⁻¹ s⁻¹
C[n+]1cn(C2OC(COP(=O)([O-])OP(=O)(O)OP(=O)(O)OCC3OC(n4cnc5c(=O)[nH]c(N)nc54)C(O)C3O)C(O)C2O)c2nc(NCc3cc(-c4ccccc4)no3)[nH]c(=O)c21 (centres unmarked) | Eukaryotic translation initiation factor 4E (Eif4e, Mus musculus, UniProt P63073) | differential scanning fluorimetry |  | 100 µM |  | melting temperature | 53 °C
CC(P(=O)(O)O)P(=O)(O)OP(=O)(O)OCC1OC(n2cnc3c(=O)[nH]c(N)nc32)CC1O (mixture of isomers) | POLB I260M | nucleotide incorporation rate, substrate, single-turnover kinetics | single-nucleotide gapped DNA | 37 °C, I260M, misincorporation, added: dGTP opposite template A |  | kpol | 0.0006 ± 8e-05 s⁻¹
Nc1nc2c(ncn2[C@H]2C[C@H](O)[C@@H](COP(=O)(O)OP(=O)(O)[C@@H](Cl)P(=O)(O)O)O2)c(=O)[nH]1 | DNA polymerase beta (POLB, Homo sapiens, UniProt P06746, R183A) | substrate, pre-steady-state kinetics |  | incorporation opposite dC in gapped DNA |  | kpol | 0.88 ± 0.13 s⁻¹
CC(C)C[C@@H](NC(=O)[C@@H](CC(=O)O)NC(=O)c1ccc(S(N)(=O)=O)cc1)C(=O)N[C@H](CC(=O)O)C(=O)N[C@H](CC(=O)O)C(=O)N[C@H](Cc1ccc(O)cc1)C(N)=O | Carbonic anhydrase 2 (CA2, Homo sapiens, UniProt P00918) | esterase activity, inhibitor |  |  | reference: 4-aminobenzenesulfonamide | potency increase | ~17 fold
CC(C)(C)CCN1C[C@@H]2[C@@H](CNC(=O)c3cc(Cl)cc(Cl)c3)[C@@H]2C1.Cl | Voltage-dependent L-type calcium channel subunit alpha-1F, exon 47 deletion isoform (Homo sapiens, UniProt O60840) | calcium current, whole-cell patch clamp | HEK-293T cells | 50 nM |  | reversal potential | 75.9 ± 7.91 mV
Cc1ccc(NC(=O)CNS(=O)(=O)c2nc(-c3ccc(OC(F)(F)F)cc3)cc(C(F)(F)F)n2)cc1 | Bifunctional 3'-5' exonuclease/ATP-dependent helicase WRN (WRN, Homo sapiens, UniProt Q14191) | enzyme activity, inhibitor |  |  |  | kinact | 0.00045 s⁻¹
CCC1(CC)C(=O)N(c2cccc(CN3CCN(c4cc(C)nc5ccc(Br)cc45)CC3)c2)C1=O | Dipeptidyl peptidase 8 (Homo sapiens, UniProt Q6V1X1) | probe labelling, inhibitor, competitive ABPP mass spectrometry | U-937 cell lysate | 10 µM, added: FP-biotin 10 µM | reference: DMSO over compound | SILAC ratio | > 3
CNc1ccccc1C(=O)O[C@H]1C[C@H](n2cnc3c(N)ncnc32)O[C@@H]1COP(=O)(O)OP(=O)(O)O | Unconventional myosin-Va (Gallus gallus, UniProt Q02440, D297C/G292C/I296C/S293C/V295G) | stopped-flow FRET |  | 4 °C, added: MgCl2 10 mM |  | association rate constant | 1.21e+06 ± 70000 M⁻¹ s⁻¹
S=C(Nc1ccc(Cl)cc1)Nc1cccc2[nH]ccc12 | Microtubule-associated protein tau, 0N3R isoform (MAPT, Homo sapiens, UniProt P10636) | fibril formation, ThT fluorescence |  | 100 µM, 18 h, added: tau 10 µM |  | inhibition | 66%
O=C1CC(c2ccccc2)N1S(=O)(=O)c1ccc(-c2ccccc2)cc1 (centres unmarked) | Rhomboid protease AarA (Providencia stuartii, UniProt P46116) | enzyme activity, inhibitor |  | 100 µM |  | remaining activity | 71 to 86%
O=C(NCCC#Cc1cc(Nc2nccc(-c3ccn([C@H](CO)c4ccc(Cl)c(F)c4)c(=O)c3)n2)ccn1)OC1CC/C=C/CCC1 (some centres unmarked) | Mitogen-activated protein kinase 1 (MAPK1, Homo sapiens, UniProt P28482) | binding, SPR |  | 25 °C |  | dissociation half-life | 4 min
Clc1ccc2c(NCc3ccc(OC4CCOCC4)cc3)ccnc2c1 | Nuclear receptor subfamily 4 group A member 2, ligand binding domain (Homo sapiens, UniProt P43354) | reporter gene, agonist, Gal4-Nurr1 hybrid reporter | HEK-293T | 30 µM, crude library product | reference: vehicle (0.1% DMSO) | activation | > 1.5 fold

Repeated from above:
Compound | target | assay | test system | conditions | how to read | quantity | result
COc1ccc(-c2cc(C(F)(F)F)nc(NCc3ccc(Cl)cc3)n2)cc1OC | Secretin receptor (SCTR, Homo sapiens, UniProt P47872) | cAMP accumulation, positive allosteric modulator | CHO-K1 overexpressing SCTR | added: EC10-EC20 secretin peptide mix | reference: EC95 peptide mix | Emax | 67 ± 8.6%
